Experimental data collected from several papers.
Each numbered part is a random draw from the data of one study; scales do not carry over between parts.
UniProt Q96PN8, sequence (whole entry, looked up): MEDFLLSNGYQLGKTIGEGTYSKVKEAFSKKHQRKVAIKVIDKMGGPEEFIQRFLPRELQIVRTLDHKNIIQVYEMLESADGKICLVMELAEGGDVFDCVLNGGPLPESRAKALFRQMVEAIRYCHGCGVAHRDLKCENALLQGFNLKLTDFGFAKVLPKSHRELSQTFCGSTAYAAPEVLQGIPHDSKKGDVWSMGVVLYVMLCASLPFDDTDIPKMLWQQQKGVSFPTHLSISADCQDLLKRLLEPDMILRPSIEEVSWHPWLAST
UniProt O00238, sequence (whole entry, looked up): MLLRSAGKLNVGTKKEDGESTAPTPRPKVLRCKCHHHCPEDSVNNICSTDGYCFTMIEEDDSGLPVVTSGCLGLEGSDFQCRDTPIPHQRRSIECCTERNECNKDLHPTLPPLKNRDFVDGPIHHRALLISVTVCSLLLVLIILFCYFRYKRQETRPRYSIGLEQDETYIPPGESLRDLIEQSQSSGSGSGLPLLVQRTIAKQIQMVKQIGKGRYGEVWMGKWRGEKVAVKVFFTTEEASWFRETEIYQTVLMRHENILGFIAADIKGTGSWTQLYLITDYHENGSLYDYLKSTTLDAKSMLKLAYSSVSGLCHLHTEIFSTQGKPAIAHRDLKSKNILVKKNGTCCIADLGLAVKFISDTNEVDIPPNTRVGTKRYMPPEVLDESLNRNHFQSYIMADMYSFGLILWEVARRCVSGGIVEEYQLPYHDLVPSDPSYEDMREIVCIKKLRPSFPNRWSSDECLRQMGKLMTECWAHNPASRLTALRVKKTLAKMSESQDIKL
UniProt Q14004, sequence (whole entry, looked up): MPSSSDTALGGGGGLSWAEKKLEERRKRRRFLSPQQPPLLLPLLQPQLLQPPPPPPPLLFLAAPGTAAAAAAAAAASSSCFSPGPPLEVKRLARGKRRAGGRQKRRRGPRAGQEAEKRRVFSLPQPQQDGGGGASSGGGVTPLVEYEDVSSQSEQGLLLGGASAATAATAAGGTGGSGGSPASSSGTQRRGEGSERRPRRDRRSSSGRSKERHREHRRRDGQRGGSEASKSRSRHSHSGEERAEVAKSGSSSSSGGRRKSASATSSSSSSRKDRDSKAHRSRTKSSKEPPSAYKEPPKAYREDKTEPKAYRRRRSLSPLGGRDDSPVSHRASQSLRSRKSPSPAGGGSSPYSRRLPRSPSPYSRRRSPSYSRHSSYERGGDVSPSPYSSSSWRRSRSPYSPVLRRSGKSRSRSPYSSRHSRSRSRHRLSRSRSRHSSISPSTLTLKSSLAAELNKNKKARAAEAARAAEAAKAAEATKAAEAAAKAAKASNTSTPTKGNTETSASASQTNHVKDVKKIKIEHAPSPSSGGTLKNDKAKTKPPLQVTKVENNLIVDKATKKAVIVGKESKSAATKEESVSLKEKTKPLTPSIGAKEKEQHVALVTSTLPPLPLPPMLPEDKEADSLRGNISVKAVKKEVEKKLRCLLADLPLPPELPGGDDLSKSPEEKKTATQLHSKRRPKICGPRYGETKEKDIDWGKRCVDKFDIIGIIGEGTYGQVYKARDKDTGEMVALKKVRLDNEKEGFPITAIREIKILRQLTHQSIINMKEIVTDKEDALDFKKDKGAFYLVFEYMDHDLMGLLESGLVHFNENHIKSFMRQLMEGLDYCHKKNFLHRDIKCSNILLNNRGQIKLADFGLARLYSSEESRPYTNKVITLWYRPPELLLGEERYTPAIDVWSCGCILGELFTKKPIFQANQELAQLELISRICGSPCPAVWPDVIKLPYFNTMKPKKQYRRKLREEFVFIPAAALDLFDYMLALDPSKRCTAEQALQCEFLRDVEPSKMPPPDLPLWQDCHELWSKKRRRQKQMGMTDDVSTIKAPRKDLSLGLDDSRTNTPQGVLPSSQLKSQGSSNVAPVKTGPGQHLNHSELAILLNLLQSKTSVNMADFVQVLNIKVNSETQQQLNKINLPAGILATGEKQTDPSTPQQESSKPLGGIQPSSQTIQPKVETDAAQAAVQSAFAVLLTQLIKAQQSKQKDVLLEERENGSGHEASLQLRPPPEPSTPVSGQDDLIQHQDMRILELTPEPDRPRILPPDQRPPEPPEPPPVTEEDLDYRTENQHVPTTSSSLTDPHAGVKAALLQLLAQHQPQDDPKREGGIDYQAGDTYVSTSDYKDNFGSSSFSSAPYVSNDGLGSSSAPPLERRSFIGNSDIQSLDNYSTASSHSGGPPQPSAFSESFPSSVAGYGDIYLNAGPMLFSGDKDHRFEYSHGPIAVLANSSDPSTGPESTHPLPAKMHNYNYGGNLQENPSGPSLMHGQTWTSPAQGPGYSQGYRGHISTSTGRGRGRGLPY
UniProt P57059, sequence (whole entry, looked up): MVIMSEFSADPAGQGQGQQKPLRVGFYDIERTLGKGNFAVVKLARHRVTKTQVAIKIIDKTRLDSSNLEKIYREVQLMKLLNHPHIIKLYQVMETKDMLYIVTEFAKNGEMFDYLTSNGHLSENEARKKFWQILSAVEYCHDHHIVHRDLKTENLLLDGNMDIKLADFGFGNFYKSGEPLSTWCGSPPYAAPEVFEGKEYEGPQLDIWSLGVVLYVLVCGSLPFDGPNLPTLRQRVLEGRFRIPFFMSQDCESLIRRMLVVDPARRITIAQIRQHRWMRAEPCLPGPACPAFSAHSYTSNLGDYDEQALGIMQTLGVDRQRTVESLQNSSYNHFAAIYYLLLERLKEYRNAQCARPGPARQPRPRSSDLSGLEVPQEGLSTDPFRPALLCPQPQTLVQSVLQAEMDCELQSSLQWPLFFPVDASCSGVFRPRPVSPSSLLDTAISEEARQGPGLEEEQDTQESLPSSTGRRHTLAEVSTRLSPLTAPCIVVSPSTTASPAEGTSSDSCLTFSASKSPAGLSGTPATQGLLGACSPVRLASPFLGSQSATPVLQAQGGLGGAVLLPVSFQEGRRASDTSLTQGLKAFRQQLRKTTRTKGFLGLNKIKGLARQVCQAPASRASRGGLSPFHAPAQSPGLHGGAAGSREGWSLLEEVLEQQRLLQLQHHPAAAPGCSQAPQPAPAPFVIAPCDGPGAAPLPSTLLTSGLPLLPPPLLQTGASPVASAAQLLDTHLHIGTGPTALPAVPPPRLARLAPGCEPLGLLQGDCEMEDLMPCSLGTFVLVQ
UniProt O14936, sequence (whole entry, looked up): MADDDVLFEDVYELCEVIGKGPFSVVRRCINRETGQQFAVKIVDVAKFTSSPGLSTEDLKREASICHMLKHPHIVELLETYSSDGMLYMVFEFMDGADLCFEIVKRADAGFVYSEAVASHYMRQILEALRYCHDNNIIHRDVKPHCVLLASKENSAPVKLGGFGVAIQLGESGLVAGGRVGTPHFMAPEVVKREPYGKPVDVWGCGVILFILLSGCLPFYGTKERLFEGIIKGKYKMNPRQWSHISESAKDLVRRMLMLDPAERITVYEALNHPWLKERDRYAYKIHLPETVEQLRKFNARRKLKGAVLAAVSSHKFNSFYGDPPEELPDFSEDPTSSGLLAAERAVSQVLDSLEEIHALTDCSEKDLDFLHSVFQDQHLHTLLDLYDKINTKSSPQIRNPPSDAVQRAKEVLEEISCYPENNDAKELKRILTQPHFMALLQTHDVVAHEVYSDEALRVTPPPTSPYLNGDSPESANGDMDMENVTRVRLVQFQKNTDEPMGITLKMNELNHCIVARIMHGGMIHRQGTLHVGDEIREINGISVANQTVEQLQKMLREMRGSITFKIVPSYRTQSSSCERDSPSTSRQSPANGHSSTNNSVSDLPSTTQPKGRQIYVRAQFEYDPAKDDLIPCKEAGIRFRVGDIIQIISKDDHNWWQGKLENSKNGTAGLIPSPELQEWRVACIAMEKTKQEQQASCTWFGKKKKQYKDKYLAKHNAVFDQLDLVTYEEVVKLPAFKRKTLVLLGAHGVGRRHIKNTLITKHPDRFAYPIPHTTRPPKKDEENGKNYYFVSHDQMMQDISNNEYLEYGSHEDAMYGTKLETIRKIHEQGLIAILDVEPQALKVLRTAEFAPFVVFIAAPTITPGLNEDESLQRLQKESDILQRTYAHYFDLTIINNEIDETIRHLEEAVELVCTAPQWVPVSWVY

Block 1
Compound: CS(=O)(=O)c1cc(C2(NC(=O)c3cncc4c3cnn4-c3ccc(F)cc3)CC2)ccn1
Concentration: 1 µM
Quantity: remaining binding
CASK (Homo sapiens, UniProt O14936); cell-free assay, competition with immobilised ligand: 100%
EPHB6 (Homo sapiens, UniProt O15197); cell-free assay, competition with immobilised ligand: 100%
SIK1 (Homo sapiens, UniProt P57059); competition binding: 100%
TSSK3 (Homo sapiens, UniProt Q96PN8); cell-free assay, competition with immobilised ligand: 100%
Tyrosine-protein kinase ABL1, phosphorylated (ABL1, Homo sapiens, UniProt P00519, T315I); cell-free assay, competition with immobilised ligand: 73%
CDK13 (Homo sapiens, UniProt Q14004); cell-free assay, competition with immobilised ligand: 100%
BMPR1B (Homo sapiens, UniProt O00238); cell-free assay, competition with immobilised ligand: 82%
DCLK1 (Homo sapiens, UniProt O15075); cell-free assay, competition with immobilised ligand: 75%

Block 2
Target: Serine/threonine-protein kinase 25 (STK25, Homo sapiens, UniProt O00506)
UniProt O00506, sequence (whole entry, looked up): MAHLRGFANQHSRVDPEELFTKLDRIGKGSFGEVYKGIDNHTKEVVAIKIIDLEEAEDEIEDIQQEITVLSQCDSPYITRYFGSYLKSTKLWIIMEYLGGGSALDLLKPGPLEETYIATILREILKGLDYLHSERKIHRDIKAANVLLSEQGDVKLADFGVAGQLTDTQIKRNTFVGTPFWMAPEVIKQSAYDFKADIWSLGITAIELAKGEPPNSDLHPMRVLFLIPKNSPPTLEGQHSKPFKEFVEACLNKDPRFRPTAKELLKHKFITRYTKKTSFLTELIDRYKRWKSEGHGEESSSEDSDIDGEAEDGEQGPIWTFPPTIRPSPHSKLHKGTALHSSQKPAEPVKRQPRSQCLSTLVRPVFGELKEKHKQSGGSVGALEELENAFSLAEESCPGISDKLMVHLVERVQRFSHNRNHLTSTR
Effect on: enzyme activity
Mode: inhibitor
Concentration: 0.5 µM
Reference: control
Quantity: remaining activity
Cc1cncc2cccc(S(=O)(=O)N3CCCN(C(=O)CN)C[C@@H]3C)c12: 119%
CSc1nc(-c2ccnc(N[C@@H](C)c3ccccc3)c2)c(-c2ccc(F)cc2)[nH]1 (racemic): 118%
CCc1[nH]c(-c2ccc(OC)cc2)nc1-c1ccncc1: 116%
O=S(=O)(NCCNC/C=C/c1ccc(Br)cc1)c1cccc2cnccc12: 104%
Oc1ccc(Nc2nc(-c3ccc(Cl)cc3)cs2)cc1: 113%
Cc1ccc(NC2=CC(=O)c3sc(C)nc3C2=O)cc1: 93.4%
Nc1ncnc2c1cnn2-c1ccccc1: 93.2%
COc1ccc(S(=O)(=O)N(CCO)c2ccccc2CN(C)CC=Cc2ccc(Cl)cc2)cc1: 99.6%
Fc1ccc(-c2nc3n(c2-c2ccncc2)CCS3)cc1: 104%

Block 3
Structure (SMILES): CC(=O)N[C@@H](Cc1c[nH]c2ccccc12)C(=O)N[C@@H](CCC(=O)C=[N+]=[N-])C(=O)OC(C)C
Host: mouse, EL4 tumour-bearing
Matrix: EL4 tumour
Dose: dose not given
Reference: vehicle
Quantity: log2 fold change
refers to: glucuronate: 0.0398
refers to: pyridoxamine: 0.00697
refers to: 2-isopropylmalate: 0.931
refers to: N-acetylleucine: 0.192
refers to: ergothioneine: 0.926

Further values, each from its own experiment
COc1ccc(-c2c(Nc3ccccn3)[nH]c3c(C4=CCCCC4)c(-c4ccccc4)nn3c2=O)cc1
AUC over dosing interval (LC-MS/MS non-compartmental; human, plasma; oral, 200 mg twice daily, cycle 1): 124 µg·h/mL

A few entries again (block 1):
EPHB6 (Homo sapiens, UniProt O15197); cell-free assay, competition with immobilised ligand: 100%
SIK1 (Homo sapiens, UniProt P57059); competition binding: 100%
